Assay results pooled from the literature.
Compare with care: the assays were run in different laboratories. ± gives the spread as reported.
Target: Cytochrome P450 3A4 (CYP3A4, Homo sapiens, UniProt P08684)
Sequence of UniProt P08684 (whole entry, looked up): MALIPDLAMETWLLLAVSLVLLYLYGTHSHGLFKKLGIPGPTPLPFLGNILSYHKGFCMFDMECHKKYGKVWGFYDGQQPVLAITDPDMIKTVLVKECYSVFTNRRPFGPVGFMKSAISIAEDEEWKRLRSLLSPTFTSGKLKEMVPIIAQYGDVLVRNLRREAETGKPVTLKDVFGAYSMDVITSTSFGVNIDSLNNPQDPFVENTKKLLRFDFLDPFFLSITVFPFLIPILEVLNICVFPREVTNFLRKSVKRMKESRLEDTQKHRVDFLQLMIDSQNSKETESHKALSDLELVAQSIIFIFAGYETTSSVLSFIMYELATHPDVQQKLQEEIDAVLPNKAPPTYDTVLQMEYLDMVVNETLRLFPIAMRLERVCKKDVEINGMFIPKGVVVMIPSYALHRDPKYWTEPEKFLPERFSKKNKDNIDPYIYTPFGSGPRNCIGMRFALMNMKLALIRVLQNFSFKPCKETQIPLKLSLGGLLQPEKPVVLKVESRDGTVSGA
Mode: inhibitor

N=C(N)c1cccc(C[C@H](NS(=O)(=O)c2cccc(-c3ccc(Cl)cc3Cl)c2)C(=O)N2CCC(CCN)CC2)c1
IC50 (enzyme activity, fluorometric; human liver microsomes; 15 min, 37 °C): 0.39 ± 0.09 µM

C[C@H](NCc1ccc(-c2ccc(C(F)(F)F)cc2)cc1)C(N)=O
IC50 (enzyme activity, luciferase; pH 7.4): > 10 µM

C[C@@H](c1ccn(Cc2ccc(Cl)cc2Cl)n1)[C@](O)(Cn1cnnn1)c1ccc(F)cc1F
IC50 (enzyme activity; human, liver microsomes; midazolam probe): 2.9 µM

Cc1ccc(OCC(=O)N(Cc2cccs2)c2ccn[nH]2)cc1
IC50 (enzyme activity; human, liver microsomes; midazolam probe): 15 µM

CCc1ccc([C@@H]2C[C@H](C(F)(F)F)n3ncc(C(=O)NCc4ccc(OC)cc4)c3N2)cc1
IC50 (enzyme activity; with: VG substrate): 5 µM

Cc1cc(/C=C/C#N)cc(C)c1Oc1nc(NC2CCN(Cc3ccc(S(C)(=O)=O)cc3)CC2)nc2ncccc12
IC50 (enzyme activity; 10 min): 5.86 µM

c1ccc(C2(CCNC3CCC4(SCCS4)c4ccccc43)CCOC3(CCCC3)C2)nc1 (stereo not drawn)
IC50 (enzyme activity; human, liver microsomes; midazolam probe): 3.27 µM

CC(C)c1ccc(Cn2ccc([C@H](C)[C@](O)(Cn3cnnn3)c3ccc(F)cc3F)n2)cc1
IC50 (enzyme activity; human, liver microsomes; midazolam probe): 15.2 µM

COc1ccc2nc(C)cc(OCC(=O)Nc3ccccc3OC)c2c1
IC50 (enzyme activity; with: VG substrate): 3.4 µM

CC(C)(O)c1ccccc1CC[C@H](c1cccc(/C=C/c2ccc3ccc(Cl)cc3n2)c1)[S+]([O-])CC1(CC(=O)O)CC1 (stereo partly drawn)
IC50 (human liver microsomes; with: midazolam): 9.33 µM

CCC(=O)N(C)c1ccc(Cl)c(Cl)c1
IC50 (enzyme activity; human liver microsomes; 10 min, with: midazolam 2.5 µM and testosterone 50 µM): > 25 µM

CNc1nc(SC)nc2ccccc12
IC50 (enzyme activity; with: VR substrate): > 50 µM

For quick reference, copied from above:
N=C(N)c1cccc(C[C@H](NS(=O)(=O)c2cccc(-c3ccc(Cl)cc3Cl)c2)C(=O)N2CCC(CCN)CC2)c1
IC50 (enzyme activity, fluorometric; human liver microsomes; 15 min, 37 °C): 0.39 ± 0.09 µM
